# Measured values collected from several papers.
# Each line is one published result; not all experiments were run side by side. Values joined by “and” are separate records of one study, mostly repeats; a detail may differ. ± marks the error that the study gave.
SMILES,target or system,assay,test system,conditions,scale,quantity,value
Cc1ccc(S(=O)(=O)NN)cc1,,"hydrazine ligation kinetics, absorbance",,"concentration not given, 10 s, with: 2-formylphenylboronic acid",,normalised absorbance,0.459
Cc1cc(C)cc(NC(=O)CCN2CCCCCC2)c1,,locomotor activity in dark,"Danio rerio larvae, 7 dpf, well of 10 larvae","10 µM, minute 5, dark",,third-quartile larval motion,8.3 ± 2 pixels/frame
COc1ccc(C(=O)CCc2cc(C(CCc3ccc(O)cc3OC)c3ccc(O)cc3)c(O)cc2OC)cc1 (racemic),,refers to: 12-HEPE,human whole blood,"0.3 µM, with: A23187",,amount,220 ± 77 pg/mL blood
CN1CCC[C@]1(C)/C=C/S(=O)(=O)NC(=O)Nc1c2c(cc3c1CCC3)CCC2,,,"human, whole blood ex vivo","100 mg twice daily, day 1, 6 h, multiple ascending dose, with: LPS and ATP",,IL-1β inhibition,98.7%
CNS(=O)(=O)Nc1nccc(Cc2c(C)c3ccc(Oc4ncccc4F)cc3oc2=O)c1F,G-401,cell viability,,7 days,,IC50,0.508 µM
CC[C@H](C)[C@@H](C(=O)N[C@@H](CC(C)C)C(=O)N[C@@H](CO)C(=O)N[C@@H](CO)C(=O)N[C@H](C(=O)N[C@@H](CCC(=O)O)C(=O)N[C@H](C(=O)NCC(=O)N[C@@H](CO)C(=O)N[C@@H](CC(N)=O)C(=O)N[C@H](C(=O)N1C[C@H](O)C[C@H]1C(N)=O)[C@@H](C)O)C(C)C)[C@@H](C)O)N(C)C(=O)[C@H](C)NC(=O)CN(C)C(=O)[C@H](Cc1ccccc1)NC(=O)[C@H](CO)NC(=O)[C@H](CO)NC(=O)[C@H](CCCNC(=N)N)NC(=O)[C@H](CC(N)=O)NC(=O)[C@H](CC(C)C)NC(=O)[C@H](Cc1ccccc1)NC(=O)[C@H](Cc1c[nH]cn1)NC(=O)[C@H](C)NC(=O)[C@H](CC(C)C)NC(=O)[C@H](CCCNC(=N)N)NC(=O)[C@H](CCC(=O)O)NC(=O)[C@@H](NC(=O)[C@H](C)NC(=O)[C@@H]1CSSC[C@H](NC(=O)[C@H](CCCNC(=N)N)NC(=O)CC[C@H](NC(=O)CCCCCCCCCCCCCCCCCCC(=O)O)C(=O)O)C(=O)NCC(=O)N[C@@H]([C@@H](C)O)C(=O)N[C@@H](C)C(=O)N[C@@H]([C@@H](C)O)C(=O)N1)[C@@H](C)O,,,male Sprague-Dawley rats,"subcutaneous, 30 nmol/kg single dose, 96 h",,body weight loss,10.2 ± 0.4%
CCN(CC)CC(=O)Nc1cccc(-n2cc(-c3ccc4ccc(-c5cn(-c6cccc(NC(=O)CN(CC)CC)c6)nn5)cc4c3)nn2)c1,RCC4,"PCR angiogenesis array, refers to: ANPEP",,"5 x IC50, 4 h, normoxia",reference: untreated,fold regulation,-1.8
CCOC(=S)NCc1ccc(O[C@@H]2O[C@@H](C)[C@H](O)[C@@H](O)[C@H]2O)cc1,,DPPH radical,,300 µg/mL,,radical scavenging,6.02 ± 2.72%
Cc1ncsc1-c1ccc(C(C)NC(=O)C2CC(O)CN2C(=O)C(NC(=O)CCCCCCCCCCN2CCCC(Nc3ncc(Cl)c(Nc4ccccc4S(=O)(=O)C(C)C)n3)C2)C(C)(C)C)cc1 (centres unmarked),22Rv1,"RNA-seq, refers to: SCAND2P mRNA",,concentration not given,reference: DMSO,log2 fold change,-1.05
NNC(=O)Cc1ccccc1,,"hydrazine ligation kinetics, absorbance",,"concentration not given, 50 s, with: 2-formylphenylboronic acid",,normalised absorbance,0.762
Cc1cc(NC(=O)CCN2CCCCC2)ccc1Br,,locomotor activity in dark,"Danio rerio larvae, 7 dpf, well of 10 larvae","10 µM, minute 1, dark",,third-quartile larval motion,2.7 ± 0.6 pixels/frame
Cc1cccc(C)c1CNc1cc(C(=O)N2CCC2)cn2c(C)c(C)nc12,,gastric acid secretion,dog Heidenhain pouch,"oral, 3 mg/kg, 24 h after dosing, with: histamine",,inhibition,74.3%
CC1Cc2ccccc2N1C(=O)CN1CCN(Cc2ccccc2)CC1 (centres unmarked),,zero maze,D4R-KO mice,dose not given,reference: vehicle,time in open area,no effect
CC(C)c1ccc(N(C)c2ccc3c(c2)OCC[C@H]3CNc2cnccc2C(=O)O)cc1,,organoid viability,breast carcinoma organoid,patient-derived organoid model,,IC50,13.6 µM
O=C(NC[C@@H]1O[C@H]2CC/C=C/CC[C@H]2O1)c1ccc(COCCOCCOCCF)cc1,,"IEDDA cycloaddition, substrate, stopped-flow spectrophotometry",water/methanol 45:55,"0.5 mM, 298 K, with: methyltetrazine-NHS 0.05 mM",,observed rate constant kobs,0.49 ± 0.00133 s⁻¹
COc1cc(O)ccc1CCC(c1ccc(O)cc1)c1cc2c(c(C)c1O)OC(c1ccc(O)cc1)CC2 (mixture of isomers),,refers to: 15-HETE,human whole blood,"3 µM, with: Escherichia coli",,amount,3760 ± 734 pg/mL blood
NC(=O)Cc1ccc(O)c(Cc2ccc(O)cc2)c1,,DPPH radical,,300 µg/mL,,radical scavenging,29.3 ± 1.86%
CCC(CC)n1c(Cc2cccs2)nc2cc(C(=O)N[C@@H](CC(=O)O)c3ccccc3)ccc21,,,"mouse, HFpEF model (HFD plus L-NAME)","ip, 20 mg/kg/day, 2 wk",,myocardial capillary density,increased
CCCCCCCCCCCCCCCC(=O)OCC(CSC[C@H](N)C(=O)N[C@@H](CO)C(=O)N[C@@H](CCCCN)C(=O)N[C@@H](CCCCN)C(=O)N[C@@H](CCCCN)C(=O)N[C@@H](CCCCN)C(=O)NCCCCCC(=O)N[C@@H](CCCCN)C(=O)N[C@@H](CC(C)C)C(=O)N[C@H](C(=O)N[C@@H](Cc1ccccc1)C(=O)N[C@@H](Cc1ccccc1)C(=O)N[C@@H](Cc1ccc2ccccc2c1)C(=O)O)C(C)C)OC(=O)CCCCCCCCCCCCCCC (some centres unmarked),,Thioflavin S staining,"APP/PS1 transgenic mouse, cortex","local cortical injection, dose not given, unit not given",reference: injected over adjacent side,Aβ plaque level,0.59 and 0.651 and 0.355 and 0.507 and 0.649 and 0.588 and 0.525 and 0.565
CC(C)C[C@H](NC(=O)CNC(=O)[C@H](CCC(N)=O)NC(=O)[C@H](CC(C)C)NC(=O)[C@H](CC(C)C)NC(=O)[C@H](CCCNC(=N)N)NC(=O)[C@H](CCC(N)=O)NC(=O)[C@H](CC(C)C)NC(=O)[C@H](CCCNC(=N)N)NC(=O)[C@H](C)NC(=O)CNC(=O)[C@H](CCC(=O)O)NC(=O)[C@H](CCCNC(=N)N)NC(=O)[C@H](CC(C)C)NC(=O)[C@H](CCCNC(=N)N)NC(=O)[C@H](CO)NC(=O)[C@H](CC(C)C)NC(=O)[C@H](CCC(=O)O)NC(=O)[C@H](CO)NC(=O)[C@@H](NC(=O)[C@H](Cc1ccccc1)NC(=O)[C@@H](NC(=O)CNC(=O)[C@H](CC(=O)O)NC(=O)C(C)(C)NC(=O)[C@@H](N)Cc1c[nH]cn1)[C@@H](C)O)[C@@H](C)O)C(=O)N[C@@H](CC(C)C)C(=O)N[C@@H](CCC(N)=O)C(=O)NCC(=O)N[C@@H](CC(C)C)C(=O)N[C@H](C(=O)NCC(=O)N[C@@H](CCCCNC(=O)COCCOCCNC(=O)COCCOCCNC(=O)CC[C@H](NC(=O)CCCCCCCCCCCCCCCCC(=O)O)C(=O)O)C(N)=O)C(C)C,,,"NMRI mouse lean, plasma","subcutaneous, up to 300 nmol/kg, 2 h",,glucagon level,increased
O=C(NCC1OC2CCC=CCCC2O1)c1ccc(F)nc1 (centres unmarked),,"IEDDA cycloaddition, substrate, stopped-flow spectrophotometry",water/methanol 45:55,"0.5 mM, 298 K, with: methyltetrazine-NHS 0.05 mM",,observed rate constant kobs,5.52 ± 0.0172 s⁻¹
COc1ccccc1C1CCN(CCC(=O)Nc2ccc(C)c(C)c2)CC1,,locomotor activity in dark,"Danio rerio larvae, 7 dpf, well of 10 larvae","10 µM, minute 1, dark",,third-quartile larval motion,3.2 ± 0.9 pixels/frame
Oc1cc2c(cc1O)C(c1ccc3[nH]ccc3c1)NCC2 (centres unmarked),,"DPPH scavenging, absorbance",,"30 min, dark",,IC50,21.1 µM
CC(C)(C)NCC(SS(=O)(=O)O)c1ccccc1 (centres unmarked),,,"Swiss Webster mice, Schistosoma mansoni-infected","100 mg/kg x 2 doses from day 42 post-infection, perfusion day 56 post-infection",,spleen weight,0.66 g
CCOC(=O)C1CCN(CCC(=O)Nc2ccccc2F)CC1,,locomotor activity in dark,"Danio rerio larvae, 7 dpf, well of 10 larvae","10 µM, minute 1, dark",,third-quartile larval motion,0 pixels/frame
COC1CN([C@H]2CC[C@H]([C@@]3(C)Oc4c(Cl)cc(C(=O)NCc5c(SC)cc(C)[nH]c5=O)c(C)c4O3)CC2)C1,,"RNA-seq, refers to: SV2C mouse homolog","mouse, HT-1376 xenograft, whole blood",dose not given,reference: vehicle,log2 fold change,0.167
CN1CCCNC(=O)c2cccc(c2)C(=O)NCCCN(C)CCCNc2cccc3c2C(=O)c2cccc(c2C3=O)NCCC1,,,"KSN/Slc nude mice, SAS xenograft","dose not given, day 6, 144 h",,tumour volume,186 mm3 and 95.5 mm3 and 202 mm3 and 245 mm3 and 242 mm3
CCOC(=O)NN,,"hydrazine ligation kinetics, absorbance",,"concentration not given, 45 s, with: 2-formylphenylboronic acid",,normalised absorbance,0.84
CC(=O)[O-].O.O.O.O.[Ni+2].[O-]c1ccc(Br)cc1C=NCCN1CCOCC1,,superoxide scavenging,,40 µM,,inhibition,4.29%
COc1cc([C@@H]2O[C@@H](c3cc(OC)c(O[C@@H]4O[C@H](CO)[C@@H](O)[C@H](O)[C@H]4O)c(OC)c3)[C@H](CO)[C@H]2CO)cc(OC)c1O,,Oil Red O,"3T3-L1, mouse","5 µM, day 8",,lipid content,decreased
CC[C@H](C)[C@@H](C(=O)N[C@@H](CC(C)C)C(=O)N[C@@H](CO)C(=O)N[C@@H](CO)C(=O)N[C@H](C(=O)N[C@@H](CCC(=O)O)C(=O)N[C@H](C(=O)NCC(=O)N[C@@H](CO)C(=O)N[C@@H](CC(N)=O)C(=O)N[C@H](C(=O)N1C[C@H](O)C[C@H]1C(N)=O)[C@@H](C)O)C(C)C)[C@@H](C)O)N(C)C(=O)[C@H](C)NC(=O)CN(C)C(=O)[C@H](Cc1ccccc1)NC(=O)[C@H](CO)NC(=O)[C@H](CO)NC(=O)[C@H](CCCNC(=N)N)NC(=O)[C@H](CCC(N)=O)NC(=O)[C@H](CC(C)C)NC(=O)[C@H](Cc1ccccc1)NC(=O)[C@H](CCCC(=O)O)NC(=O)[C@H](C)NC(=O)[C@H](CC(C)C)NC(=O)[C@H](CCCNC(=N)N)NC(=O)[C@H](CCC(=O)O)NC(=O)[C@@H](NC(=O)[C@H](C)NC(=O)[C@@H]1CCCCNC(=O)C[C@H](NC(=O)[C@H](CCCNC(=N)N)NC(=O)CC[C@H](NC(=O)CCCCCCCCCCCCCCCCCCC(=O)O)C(=O)O)C(=O)NCC(=O)N[C@@H]([C@@H](C)O)C(=O)N[C@@H](C)C(=O)N[C@@H]([C@@H](C)O)C(=O)N1)[C@@H](C)O,,,diet-induced obese rats,"subcutaneous, 15 nmol/kg every other day, day 20",reference: day 0,body weight change,4.4%
COc1cccc(OCC(O)CN2CCN(c3ccccc3OC)CC2)c1 (centres unmarked),,locomotor activity in dark,"Danio rerio larvae, 7 dpf, well of 10 larvae","10 µM, minute 3, dark",,third-quartile larval motion,10 ± 2 pixels/frame
CC(C)C[C@H](NC(=O)[C@H](Cc1ccccc1)NC(=O)[C@H](C)NC(=O)[C@@H](CS)NC(=O)CNC(=O)[C@H](N)CO)C(=O)N[C@@H](CO)C(=O)N[C@H](C(=O)N[C@@H](CCCCN)C(=O)N[C@@H](CCCCN)C(=O)N[C@@H](CCC(N)=O)C(=O)N[C@@H](Cc1ccccc1)C(=O)N[C@@H](CCC(=O)O)C(=O)N[C@@H](CCC(=O)O)C(=O)N[C@@H](CC(C)C)C(=O)N[C@H](C(=O)N[C@@H](CC(C)C)C(=O)NCC(=O)N[C@@H](CCC(=O)O)C(=O)N[C@@H](Cc1ccccc1)C(=O)N[C@@H](CC(C)C)C(=O)N[C@H](CCCCN)C(=O)N[C@H](CC(C)C)C(=O)N[C@H](CC(=O)O)C(=O)N[C@@H](CCCNC(=N)N)C(=O)N[C@H](CCCNC(=N)N)C(=O)N[C@@H](CCCNC(=N)N)C(=O)N[C@@H](CCCCN)C(=O)O)[C@@H](C)O)C(C)C,,"immunoblot, RT-qPCR","mouse A549 xenograft, tumour",dose not given,,ABCG2 expression reduction,~80%
Cc1cccc(NC(=O)CCN2CCN(C/C=C/c3ccccc3)CC2)c1,,locomotor activity in dark,"Danio rerio larvae, 7 dpf, well of 10 larvae","10 µM, minute 7, dark",,third-quartile larval motion,1.2 ± 0.3 pixels/frame
COc1ccccc1-c1ccncc1C(=O)Nc1nnc(OCc2ccc(Cl)cc2)s1,,,"Brca1 Δ11/Δ11 Polq-/- MEFs, mouse",1.25 µM,,colony survival,91.9% and 94.1% and 85% and 86% and 100% and 98.3%
